Values quoted from earlier work, collected from citations in different studies.
Lines come from different studies, so protocols differ. Values joined by “and” are separate records of one study, mostly repeats; a detail may differ. ± marks the error that the study gave.
Chain of UniProt P28223 (whole entry, looked up): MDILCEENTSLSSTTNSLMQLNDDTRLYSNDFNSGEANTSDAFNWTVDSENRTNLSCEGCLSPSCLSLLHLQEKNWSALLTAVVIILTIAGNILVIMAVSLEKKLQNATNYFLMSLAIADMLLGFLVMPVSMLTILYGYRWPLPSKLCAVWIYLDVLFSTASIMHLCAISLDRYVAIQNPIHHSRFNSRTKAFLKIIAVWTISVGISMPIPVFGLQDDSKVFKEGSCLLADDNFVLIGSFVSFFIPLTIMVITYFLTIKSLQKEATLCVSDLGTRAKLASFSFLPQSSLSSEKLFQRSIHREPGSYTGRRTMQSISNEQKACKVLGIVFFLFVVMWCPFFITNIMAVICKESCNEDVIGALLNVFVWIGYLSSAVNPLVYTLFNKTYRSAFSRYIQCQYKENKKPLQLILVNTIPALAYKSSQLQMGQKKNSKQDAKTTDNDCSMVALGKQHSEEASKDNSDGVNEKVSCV
Chain of UniProt P56658 (whole entry, looked up): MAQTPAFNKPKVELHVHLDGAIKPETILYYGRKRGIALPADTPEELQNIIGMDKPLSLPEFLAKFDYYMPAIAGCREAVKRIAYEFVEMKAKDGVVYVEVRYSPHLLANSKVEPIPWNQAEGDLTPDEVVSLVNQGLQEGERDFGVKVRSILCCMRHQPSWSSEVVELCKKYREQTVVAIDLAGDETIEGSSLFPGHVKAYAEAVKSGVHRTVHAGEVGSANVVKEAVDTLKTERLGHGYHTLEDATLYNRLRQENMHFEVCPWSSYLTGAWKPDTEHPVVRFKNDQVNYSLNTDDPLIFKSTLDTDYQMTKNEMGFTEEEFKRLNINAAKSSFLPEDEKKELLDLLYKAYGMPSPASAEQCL

| SMILES | tested on | test | system | conditions | scale | quantity | value |
| --- | --- | --- | --- | --- | --- | --- | --- |
| O=C(O)CN(CC(=O)O)[C@H]1CCCC[C@@H]1N(CC(=O)O)Cc1ccccn1 | protonation constant |  |  | 0.15 M NaCl |  | log KH1 | 10.2 |
| O=c1ccc(OCCCN2CCCCC2)nn1-c1ccc(Cl)c(Cl)c1 | 5-hydroxytryptamine receptor 2A (HTR2A, Homo sapiens, UniProt P28223) |  |  | 1.0 µM |  | inhibition | 51.5 ± 3.8% |
| C/C(N)=N/C(=N\S(=O)(=O)c1ccc(C(F)(F)F)cc1)N1C[C@H](c2ccccc2)C(c2ccc(Cl)cc2)=N1 |  |  | Sprague-Dawley rat | 3 mg/kg |  | F | 81% |
| CCOC(=O)C(c1cc(Cl)c2cccnc2c1O)c1c[nH]c2ncccc12 (stereo not shown) | MRC-5 fibroblasts | cell viability |  |  |  | IC50 | 46.9 µM and 45.6 µM |
| O=C(O)CN1CCNCCN(CC(=O)O)Cc2cccc(n2)C1 | protonation constant |  |  | 0.15 M NaCl |  | log KH3 | 3.47 |
| O=C(C=C(O)C(F)(F)C(F)(F)F)c1ccc(NC2CC2)nc1 | Plasmodium falciparum formate-nitrite transporter | binding, FCCS | isolated protein |  |  | Ki | 0.01 ± 0.002 µM |
| Cc1ccc2c(c1)nc(CCN1C(=O)c3cccc4cccc(c34)C1=O)n2-c1ccncc1 |  |  | Sprague-Dawley rat | oral, 10 mg/kg |  | oral bioavailability | 2.5% |
| CCOC(=O)C(c1cc(Cl)c2cccnc2c1O)c1c[nH]c2ccccc12 (stereo not shown) | COLO 205 | cytotoxicity |  |  |  | IC50 | 5.51 µM and 4.71 µM and 4.42 µM |
| O=C(C=C(O)C(F)(F)C(F)(F)F)c1cccc(O)c1 | Plasmodium falciparum formate-nitrite transporter | binding, FCCS | isolated protein |  |  | Ki | 0.026 ± 0.003 µM |
| NCCN1CCN(CC(=O)O)Cc2cccc(n2)CN(CC(=O)O)CC1 | protonation constant |  |  | 0.15 M NaCl |  | log KH2 | 8.93 |
| Nc1ncnc2c([C@@H]3O[C@H](CO)[C@@H](O)[C@H]3O)snc12 | Adenosine deaminase (ADA, Bos taurus, UniProt P56658) | substrate, fluorescence |  |  |  | deamination half-life | 33.3 ± 0.7 s |
| O=C(O)CN1CCOCCN(CC(=O)O)Cc2cccc(n2)C1 | protonation constant |  |  | 0.15 M NaCl |  | log KH1 | 7.73 |
| Oc1c(Cc2c[nH]c3ncccc23)cc(Cl)c2cccnc12 | COLO 320 ABCB1-overexpressing | cell viability |  |  |  | IC50 | 22.5 µM |
| CC1(N(CC(=O)O)CC(=O)O)CN(CC(=O)O)CCN(CC(=O)O)C1 |  | pH-potentiometry, item: logK5H | 0.15 M NaCl | 25 °C |  | protonation constant (log) | 1.51 |
| CCOC(=O)C(c1ccc2ccccc2c1O)c1c[nH]c2ccccc12 (stereo not shown) | COLO 320 ABCB1-resistant colon | cytotoxicity |  |  |  | IC50 | 54.9 µM and 53.8 µM and 52.2 µM |
| COc1ccc(Nc2nc(Nc3ccc(OCC[18F])cc3)ncc2Br)cc1 |  |  | S180 tumour-bearing mice | intravenous, 120 min | reference: tumour over blood | tumour to tissue ratio | 3.84 |

Repeated from above:
| SMILES | tested on | test | system | conditions | scale | quantity | value |
| --- | --- | --- | --- | --- | --- | --- | --- |
| CCOC(=O)C(c1cc(Cl)c2cccnc2c1O)c1c[nH]c2ccccc12 (stereo not shown) | COLO 205 | cytotoxicity |  |  |  | IC50 | 5.51 µM and 4.71 µM and 4.42 µM |
| O=C(O)CN1CCNCCN(CC(=O)O)Cc2cccc(n2)C1 | protonation constant |  |  | 0.15 M NaCl |  | log KH3 | 3.47 |
